Measured values gathered from unrelated publications.
Compare with care: the assays were run in different laboratories. ± marks the error that the study gave.

Structure (SMILES)	target or system	assay	test system	setting	how to read	endpoint	value
O=C(O)CNC(=O)Cc1ccccc1			ventricular cardiomyocytes, C57BL/6 mouse	dose not given, 0.468 s		sarcomere length	1.69 µm
O=C(c1cc(-c2ccco2)[nH]n1)N1CCN(S(=O)(=O)c2ccc(Br)cc2)CC1	Plasmodium yoelii		17XL	384-well		IC50	280 ± 171 nM
NC(=O)c1cnc2[nH]ccc2c1N[C@@H]1[C@@H]2CC3C[C@H]1C[C@@](O)(C3)C2		flow cytometry	Japanese healthy men, blood	oral, 30 mg twice daily, 72 h after day 7 dose	reference: baseline	CD4+CD28+ naive T-cell change	-0.77%
OC(CCN1CCCCC1)(c1ccccc1)C1CC2C=CC1C2 (stereo not shown)		resting-state EEG	healthy elderly humans	oral, 2 mg, eyes open, LS mean		EEG power, beta, Pz-O1	7.1 µV²
Oc1ccccc1-c1n[nH]cc1-c1ccnc2ccccc12	ENV7 (Candida albicans)	kinase binding, MIB/MS competition	Candida albicans lysate	10 µM	reference: DMSO	log2 fold change	0.14
Cc1[nH]c(C)c(-c2ccc(OCCCCSc3ccncc3)cc2)c(=O)c1Br	Plasmodium yoelii		17XL	384-well		IC50	708 ± 289 nM
CC(C)NCC(O)c1ccc(O)c(O)c1 (stereo not shown)			ventricular cardiomyocytes, C57BL/6 mouse	dose not given, 0.032 s		sarcomere length	1.72 µm
COc1ccc(F)cc1C(=O)NCc1ccc(-c2nn([C@@H](C)C(F)(F)F)c(N)c2C(N)=O)cc1	MEK1/MEK2 human	probe binding, competitive chemoproteomics	human PBMCs	0.1 µM		inhibition	1.4%
c1coc(-c2n[nH]cc2-c2ccnc3ccccc23)c1	CMK2 (Candida albicans)	kinase binding, MIB/MS competition	Candida albicans lysate	1 µM	reference: DMSO	log2 fold change	0.3
COc1ccc2c(=O)c(C3CCC(c4ccc(Cl)cc4)CC3)c(C)[nH]c2c1 (stereo not shown)	Plasmodium yoelii		17XL	384-well		IC50	400 ± 33 nM

Excerpt of the above:
Structure (SMILES)	target or system	assay	test system	setting	how to read	endpoint	value
Cc1[nH]c(C)c(-c2ccc(OCCCCSc3ccncc3)cc2)c(=O)c1Br	Plasmodium yoelii		17XL	384-well		IC50	708 ± 289 nM
